# Results pooled from the literature.
# Compare with care: the assays were run in different laboratories. Values joined by “and” are separate records of one study, mostly repeats; a detail may differ. ± gives the spread as reported.
# BIRC3 BIR1 domain: Baculoviral IAP repeat-containing protein 3, BIR1 domain (BIRC3, Homo sapiens, UniProt Q13489)
# Protein kinase C-like 1: Protein kinase C-like 1 (Candida albicans, UniProt P43057)
# HTR7: 5-hydroxytryptamine receptor 7 (HTR7, Homo sapiens, UniProt P34969)
# MAP3K13: Mitogen-activated protein kinase kinase kinase 13 (MAP3K13, Homo sapiens, UniProt O43283)
# HTR2C: 5-hydroxytryptamine receptor 2C (HTR2C, Homo sapiens, UniProt P28335)
# TOP2A: DNA topoisomerase 2-alpha (TOP2A, Homo sapiens, UniProt P11388)
SMILES,target,test,system,conditions,scale,endpoint,value
Cc1ccc(N2CC(C(N)=O)CC2=O)cc1 (stereo not drawn),BIRC3 BIR1 domain,"binding, affinity selection mass spectrometry",,,reference: other proteins in batch,fold enrichment,1.13
N[C@@H](CCC(=O)O)C(=O)O,"uncharacterized protein (Ixodes scapularis, UniProt A0A0N9E2I2)",two-electrode voltage clamp,Xenopus oocytes,extracellular Cl- 107.6 mM,,reversal potential,-27.5 ± 1.1 mV
O=S(=O)(O)O,"GUK1 (Homo sapiens, UniProt Q16774)","enzyme activity, NADH-coupled",,"1 mM, with: ATP 62.5 µM",,reaction velocity,0.0397 µM/s and 0.0591 µM/s and 0.0398 µM/s
O=C1N[C@H](c2cncc(C#Cc3ccccc3)c2)[C@@H](c2ccccc2Cl)O1,"Metabotropic glutamate receptor 5 (Macaca mulatta, UniProt A0ACM8QRY8)","receptor occupancy, PET",rhesus monkey,intravenous,,ED50,0.11 ± 0.02 mg/kg
C[C@@H](O)CNC(C)(C)CC(=O)N[C@@H]1CCc2ccccc2N(Cc2ccc(-c3ccccc3-c3nn[nH]n3)cc2)C1=O,"Growth hormone secretagogue receptor type 1 (GHSR, Homo sapiens, UniProt Q92847)",calcium mobilization,"HEK293, stably transfected",,,Hill slope,1
CCCCC[C@H](O)/C=C/[C@H]1[C@H](O)CC(=O)[C@@H]1C/C=C\CCCC(=O)O,"Prostaglandin E2 receptor EP1 subtype (PTGER1, Homo sapiens, UniProt P34995, R338A)","IP1 accumulation, agonist",AD293,"1 h, EP1 R338A mutant",,Emax,43.1 ± 6.78%
N#Cc1ccn2c(-c3ccncc3)c(-c3ccc(F)cc3)nc2c1,Protein kinase C-like 1,"kinase binding, competitor, MIB/MS competition, measured: PKC1",Candida albicans cell lysate,100 nM,reference: DMSO,log2 fold change,-0.137
Cc1cc(C)nc(NC(=S)N2CCN(Cc3ccc(C(F)(F)F)cc3)CC2)c1,"Mitogen-activated protein kinase 12 (MAPK12, Homo sapiens, UniProt P53778)","inhibitor, ADP-Glo",,concentration not given,,kinase activity,no effect
Nc1ncnc2c1ncn2[C@@H]1O[C@H](COP(=O)(O)OP(=O)(O)OP(=O)(O)O)[C@@H](O)[C@H]1O,"Creatine kinase U-type, mitochondrial (CKMT1A, Homo sapiens, UniProt P12532, E265Q)","substrate, ADP-Glo luminescence",,"pH 8.5, forward reaction, E227Q mutant, with: second substrate in excess",,Km,120 ± 60 µM
OCc1ccc(-c2ccc(-c3ccc(CO)s3)o2)s1,"Sulfotransferase 1A1 (SULT1A1, Homo sapiens, UniProt P50225)","substrate, colorimetric",,100 µM,reference: benzyl alcohol,relative sulfonation activity,< 2 fold
CC(C)C[C@H](NC(=O)[C@H]1O[C@@H]1C(=O)O)C(=O)NCCCCN=C(N)N,"Cathepsin B (CTSB, Homo sapiens, UniProt P07858)","enzyme inactivation, irreversible inhibitor",,"pH 5.8, 37 °C, human liver enzyme",,kinact/KI,18000 ± 11000 M⁻¹ s⁻¹
COc1cc(Nc2ncc3c(n2)-c2ccc(Cl)cc2C(c2c(F)cccc2OC)=NC3)ccc1C(=O)O,SRMS,kinase activity,,1 µM,,remaining activity,98%
Cc1ncccc1OC[C@@H]1CN(CCN2CCc3ccccc32)CCO1,HTR7,radioligand binding,,"concentration not given, with: [3H]LSD",,inhibition,39.2%
c1ccc(C(NCc2cccnc2)(c2ccccc2)c2ccccc2)cc1,"Potassium voltage-gated channel subfamily KQT member 1 (KCNQ1, Homo sapiens, UniProt P51787)",fractional inhibition kinetics,,,,fast over slow component rate,~50 fold
O=S(=O)(O)C1CCNCC1,"Sodium- and chloride-dependent taurine transporter (SLC6A6, Homo sapiens, UniProt P31641, G62A)","binding, microscale thermophoresis",,"488 nM, room temperature, with: 50 nM labelled protein",higher = more binding,normalised MST signal,0.0294
COc1cc(C(=O)NS(=O)(=O)c2ccccc2C)ccc1Cc1cn(C)c2ccc(NC(=O)OC3CCCC3)cc12,"LRRC8A/LRRC8C (Homo sapiens, UniProt Q8IWT6+Q8TDW0, Y124F/Y126F)",whole-cell patch clamp,HCT116 LRRC8-/- transfected,at +100 mV,,Hill coefficient,1.53
CN(C)CC#Cc1ccc2[nH]c3c(c2c1)-c1nc(N)ncc1CCC3,"Serine/threonine-protein kinase RIO2 (RIOK2, Homo sapiens, UniProt Q9BVS4)",DiscoverX scanMAX,,1 µM,reference: control,remaining binding,32%
Cc1ccnc(C)c1OC[C@H]1CN(CCN2CCc3ccccc32)CCO1,HTR7,radioligand binding,,"concentration not given, with: [3H]LSD",,inhibition,42.1%
O=C(O)C[C@@H](O)C(=O)O,"Uncharacterized protein (Pelagibacter ubique, UniProt Q4FKX4)",differential scanning fluorimetry,Candidatus Pelagibacter ubique,in-house screen,,thermal shift,10.3 °C
CCN1CCC[C@H]1CNC(=O)c1c(O)c(Cl)cc(Cl)c1OC,"G-protein coupled receptor 171 (GPR171, Homo sapiens, UniProt O14626)","β-arrestin recruitment, TANGO luminescence, measured: GPR171",,concentration not given,reference: basal luminescence,log2 fold change,0.638
Cc1cc(OCC(=O)NC(C)C)cc(C)c1Cl,"Sodium-dependent neutral amino acid transporter B(0)AT1 (SLC6A19, Homo sapiens, UniProt Q695T7)","membrane potential, FLIPR membrane potential",CHO-BC cells,"concentration not given, first screen",reference: uninhibited control,normalised transport activity,0.549 and 0.583 and 0.683 and 0.643
CC1CCCN(C(=O)c2cc3ncccn3n2)C1 (stereo not drawn),"Histone acetyltransferase type B catalytic subunit (Homo sapiens, UniProt O14929)","binding, affinity selection mass spectrometry",,,reference: other proteins in batch,log fold enrichment,0.0426
O=c1cc(-c2ccc([N+](=O)[O-])cc2)[nH]c2c(-c3ccc(Cl)cc3)c(Cc3ccccc3)nn12,"Eukaryotic translation initiation factor 3 subunit J (Homo sapiens, UniProt O75822)","thermal stability, binder, thermal proteome profiling","RD, cell lysate","50 µM, 0.5% DMSO",reference: DMSO vehicle,melting temperature shift,3.8 °C
CO[C@H]1O[C@H](COS(=O)(=O)O)[C@@H](O[C@@H]2O[C@@H](C(=O)O)[C@@H](O[C@H]3O[C@H](COS(=O)(=O)O)[C@@H](O[C@@H]4O[C@H](C(=O)O)[C@@H](O[C@H]5O[C@H](COS(=O)(=O)O)[C@@H](O)[C@H](O)[C@H]5NS(=O)(=O)O)[C@H](O)[C@H]4O)[C@H](OS(=O)(=O)O)[C@H]3NS(=O)(=O)O)[C@H](O)[C@H]2OS(=O)(=O)O)[C@H](O)[C@H]1NS(=O)(=O)O,"Antithrombin-III (SERPINC1, Homo sapiens, UniProt P01008)","binding, concanavalin A-Sepharose binding",,"room temperature, with: Mn2+ 1 mM",,bound fraction,80%
O=C(O)C1CCCNC1 (stereo not drawn),"Sodium- and chloride-dependent taurine transporter (SLC6A6, Homo sapiens, UniProt P31641, Y138A)","binding, microscale thermophoresis",,"488 nM, room temperature, with: 50 nM labelled protein",higher = more binding,normalised MST signal,-0.14
O=C(NC1CCC1)c1ccc2nc(-c3cccc(NS(=O)(=O)NCCN4CCCCC4)c3)cn2c1,MAP3K13,enzyme activity,,10 µM,,remaining activity,89%
C[C@]12C[C@H](O)[C@H]3[C@@H](CCC4=CC(=O)CC[C@@]43C)[C@@H]1CC[C@@H]2C(=O)CO,"Cytochrome P450 11B2, mitochondrial (CYP11B2, Homo sapiens, UniProt P19099, A320V)",substrate,,"100 µM, 37 °C, phospholipid vesicles",,"NADPH consumption rate, 18-hydroxylation",2.3 ± 0.1 min⁻¹
CNc1ncc2c(/C=C/C(=O)N3CCC(OC)CC3)nn(Cc3cccc(C(F)(F)F)c3)c2n1,"Serine/threonine-protein kinase Nek6 (NEK6, Homo sapiens, UniProt Q9HC98)","kinase activity, inhibitor",,1 µM,reference: untreated control,remaining activity,93%
Nc1nc2c(ncn2[C@@H]2O[C@H](COP(=O)(O)O)[C@@H](O)[C@H]2O)c(=O)[nH]1,"GUK1 (Homo sapiens, UniProt Q16774, T83A)","binding, ITC",,,,-TΔS,6.44 kcal/mol
O=C1CC[C@H](N2Cc3cc(N4CCN(CC5CCN(c6ccc([C@@H]7c8ccc(O)cc8CC[C@@H]7c7ccccc7)cc6)CC5)CC4)ccc3C2=O)C(=O)N1,"Estrogen receptor (Esr1, Rattus norvegicus, UniProt P06211)",degrader,immature Sprague-Dawley rat,"oral, 30 mg/kg daily x3, day 4",reference: vehicle,uterine protein reduction,76%
C[C@@H](c1ccc(-n2cnc3c(N)ncnc32)cc1)N1CCc2nn(C)c(Cc3ccccc3)c2C1=O,MAP3K13,KINOMEscan,,0.1 µM,reference: DMSO control,remaining binding,73%
O=C(CN1CCO[C@H](COc2ccccc2)C1)N1CCc2ccccc21,HTR2C,radioligand binding,,"concentration not given, with: [3H]mesulergine",,inhibition,42.6%
c1coc(-c2n[nH]cc2-c2ccnc3ccccc23)c1,Protein kinase C-like 1,"kinase binding, MIB/MS competition",Candida albicans lysate,10 µM,"reference: DMSO, negative = stronger binding",log2 fold change,-0.13
C=CC(=O)N1CCC(COCC(=O)N2CCN(c3nc(-c4cnc(N)nc4C(F)F)nc(N4CCOC[C@@H]4C)n3)CC2)CC1,"MAP kinase-interacting serine/threonine-protein kinase 2 (MKNK2, Homo sapiens, UniProt Q9HBH9)",KINOMEscan,,1 µM,,remaining binding,84%
Nc1ncnc2c1ncn2[C@@H]1O[C@H](COP(=O)(O)OP(=O)(O)OP(=O)(O)O)[C@@H](O)[C@H]1O,"P2X purinoceptor 7 (P2rx7, Rattus norvegicus, UniProt Q64663, I214A/Q143A/R125A)","ion current, agonist, two-electrode voltage clamp",Xenopus oocytes,2700 µM,,normalized current,0.963 and 0.952 and 0.988
CC1(C)CC2(C)OC(=O)NC2(C)c2ccccc21 (stereo not drawn),"WD repeat-containing protein 55 (WDR55, Homo sapiens, UniProt Q9H6Y2)","binding, affinity selection mass spectrometry",,,reference: other proteins in batch,log fold enrichment,-0.0686
CC1=CC(=O)c2ccccc2C1=O,"FSP1, ancestral",substrate,,co-substrate fixed,,Km,6.33 ± 0.74 µM
C[C@]12CC[C@@H]3c4ccc(O)cc4CC[C@H]3[C@@H]1CC[C@@H]2O,"17-beta-hydroxysteroid dehydrogenase 13 (Homo sapiens, UniProt Q7Z5P4)","substrate, NADH fluorescence",,,,Vmax,0.04 nM NADH/s/nM enzyme
Nc1ccc2cc3ccc(N)cc3nc2c1,"Chymotrypsinogen A, activated (alpha-chymotrypsin) (Bos taurus, UniProt P00766)",isothermal titration calorimetry,,"concentration not given, 25 °C, with: 0.5 M TMAO",,entropic contribution to binding,-28.4 ± 0.884 kcal/mol
O=C1c2ccccc2CCCN1CCCCN1CCN(c2ccccn2)CC1,HTR2C,radioligand binding,,"concentration not given, with: [3H]mesulergine",,inhibition,42.6%
Nc1ccc(C(=O)O)cc1,"BEST1, with wild-type BEST1 (Homo sapiens, UniProt O76090, R218H)","ion current, whole-cell patch clamp",HEK293 co-expressing mutant and wild-type,"concentration not given, voltage 100 mV",,current density,7.13 pA/pF and 23.1 pA/pF and 12.6 pA/pF and 8.72 pA/pF and 28.1 pA/pF and 21.1 pA/pF and 50.9 pA/pF and 23.7 pA/pF
Nc1ncnc2c1ncn2[C@@H]1O[C@H](COP(=O)(O)CP(=O)(O)OP(=O)(O)O)[C@@H](O)[C@H]1O,"P2X purinoceptor 1 (P2RX1, Homo sapiens, UniProt P51575)",calcium influx,,1 µM,reference: ionomycin response,calcium influx,83.8% and 100%
Cc1cccc(N2CC(C(=O)O)CC2=O)c1 (stereo not drawn),"RFWD3 (Homo sapiens, UniProt Q6PCD5)","binding, affinity selection mass spectrometry",,,reference: other proteins in batch,fold enrichment,0.85
O=c1nc(SCc2cc(F)cc(C(F)(F)F)c2)nc(SCc2ccc3nc(Cl)ccc3c2)[nH]1,TOP2A,DNA cleavage,,"31.25 µM, replicate 1",,linear DNA,0%
O=c1cc(-c2ccccc2)oc2ccc(O)cc12,"UDP-glucuronosyltransferase 1A9 (UGT1A9, Homo sapiens, UniProt O60656)","glucuronidation, substrate",recombinant enzyme,,,Vmax,76 pmol/min/mg
CCS(=O)(=O)N1CC(CC#N)(n2cc(-c3ncnc4[nH]ccc34)cn2)C1,"Alpha-1-acid glycoprotein 1 (ORM1, Homo sapiens, UniProt P02763)",,,with: Mg^2+,,change in binding constant,-56.8%
CCCCC[S+]([O-])c1n[nH]c(N)n1 (stereo not drawn),BIRC3 BIR1 domain,"binding, affinity selection mass spectrometry",,,reference: other proteins in batch,log fold enrichment,0.165
Cc1nc(CSc2nc(SCc3ccc(C(C)C)cc3)nc(=O)[nH]2)cs1,TOP2A,decatenation,,125 µM,,mean decatenated DNA,0%

# Repeated from above:
SMILES,target,test,system,conditions,scale,endpoint,value
Cc1ncccc1OC[C@@H]1CN(CCN2CCc3ccccc32)CCO1,HTR7,radioligand binding,,"concentration not given, with: [3H]LSD",,inhibition,39.2%
O=C1N[C@H](c2cncc(C#Cc3ccccc3)c2)[C@@H](c2ccccc2Cl)O1,"Metabotropic glutamate receptor 5 (Macaca mulatta, UniProt A0ACM8QRY8)","receptor occupancy, PET",rhesus monkey,intravenous,,ED50,0.11 ± 0.02 mg/kg
CNc1ncc2c(/C=C/C(=O)N3CCC(OC)CC3)nn(Cc3cccc(C(F)(F)F)c3)c2n1,"Serine/threonine-protein kinase Nek6 (NEK6, Homo sapiens, UniProt Q9HC98)","kinase activity, inhibitor",,1 µM,reference: untreated control,remaining activity,93%
Cc1cc(C)nc(NC(=S)N2CCN(Cc3ccc(C(F)(F)F)cc3)CC2)c1,"Mitogen-activated protein kinase 12 (MAPK12, Homo sapiens, UniProt P53778)","inhibitor, ADP-Glo",,concentration not given,,kinase activity,no effect
